Published values pooled from the literature.
Every numbered part comes from another study and shows a few of its results, in no order.
Sequence of UniProt Q86UX6 (whole entry, looked up): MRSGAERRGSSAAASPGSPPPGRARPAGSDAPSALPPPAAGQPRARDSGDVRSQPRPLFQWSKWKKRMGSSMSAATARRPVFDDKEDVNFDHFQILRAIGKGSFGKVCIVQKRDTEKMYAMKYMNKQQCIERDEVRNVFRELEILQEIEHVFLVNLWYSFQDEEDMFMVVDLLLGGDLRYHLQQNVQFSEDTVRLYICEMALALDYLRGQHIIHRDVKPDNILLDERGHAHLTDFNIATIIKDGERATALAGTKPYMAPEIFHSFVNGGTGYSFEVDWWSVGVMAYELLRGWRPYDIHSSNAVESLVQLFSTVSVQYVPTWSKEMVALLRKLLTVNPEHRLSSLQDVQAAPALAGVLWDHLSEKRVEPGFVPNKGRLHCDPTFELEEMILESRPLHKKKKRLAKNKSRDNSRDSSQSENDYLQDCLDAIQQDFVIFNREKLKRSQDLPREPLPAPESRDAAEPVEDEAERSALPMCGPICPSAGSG
Sequence of UniProt P08631 (whole entry, looked up): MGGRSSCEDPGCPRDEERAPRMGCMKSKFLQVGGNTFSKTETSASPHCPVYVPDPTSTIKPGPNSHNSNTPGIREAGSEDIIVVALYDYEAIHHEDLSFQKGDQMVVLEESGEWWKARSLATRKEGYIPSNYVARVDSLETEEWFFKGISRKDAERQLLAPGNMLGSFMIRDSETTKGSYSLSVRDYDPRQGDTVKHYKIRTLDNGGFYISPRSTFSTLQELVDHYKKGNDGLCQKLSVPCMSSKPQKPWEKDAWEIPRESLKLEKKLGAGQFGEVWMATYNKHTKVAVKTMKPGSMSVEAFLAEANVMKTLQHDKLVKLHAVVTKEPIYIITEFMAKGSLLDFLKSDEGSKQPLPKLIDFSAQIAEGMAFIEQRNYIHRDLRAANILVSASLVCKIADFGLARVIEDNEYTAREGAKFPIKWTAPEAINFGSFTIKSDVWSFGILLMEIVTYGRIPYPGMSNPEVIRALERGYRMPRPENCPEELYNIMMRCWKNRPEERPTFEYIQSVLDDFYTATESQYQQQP
Sequence of UniProt P45985 (whole entry, looked up): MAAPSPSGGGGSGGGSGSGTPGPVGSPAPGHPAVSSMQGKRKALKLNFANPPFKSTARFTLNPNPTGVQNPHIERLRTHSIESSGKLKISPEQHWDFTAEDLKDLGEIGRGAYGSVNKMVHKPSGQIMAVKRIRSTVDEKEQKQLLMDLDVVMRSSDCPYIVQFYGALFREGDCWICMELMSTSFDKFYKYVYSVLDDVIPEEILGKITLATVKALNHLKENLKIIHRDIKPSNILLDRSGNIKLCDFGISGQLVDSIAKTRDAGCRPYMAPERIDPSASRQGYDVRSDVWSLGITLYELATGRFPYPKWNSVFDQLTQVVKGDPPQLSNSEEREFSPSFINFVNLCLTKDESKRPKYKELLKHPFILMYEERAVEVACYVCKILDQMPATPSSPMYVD
Sequence of UniProt P48730 (whole entry, looked up): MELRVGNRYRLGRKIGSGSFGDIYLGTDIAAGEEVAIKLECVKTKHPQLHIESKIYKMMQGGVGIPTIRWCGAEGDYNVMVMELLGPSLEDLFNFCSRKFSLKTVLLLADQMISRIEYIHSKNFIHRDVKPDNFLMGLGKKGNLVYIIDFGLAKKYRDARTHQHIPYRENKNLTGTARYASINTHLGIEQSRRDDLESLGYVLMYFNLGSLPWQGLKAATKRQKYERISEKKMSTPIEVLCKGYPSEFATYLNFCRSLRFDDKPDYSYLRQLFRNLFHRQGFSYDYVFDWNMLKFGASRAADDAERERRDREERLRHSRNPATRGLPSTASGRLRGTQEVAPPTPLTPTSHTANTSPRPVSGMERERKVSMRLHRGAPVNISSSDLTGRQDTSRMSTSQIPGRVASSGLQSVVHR
Sequence of UniProt P11362 (whole entry, looked up): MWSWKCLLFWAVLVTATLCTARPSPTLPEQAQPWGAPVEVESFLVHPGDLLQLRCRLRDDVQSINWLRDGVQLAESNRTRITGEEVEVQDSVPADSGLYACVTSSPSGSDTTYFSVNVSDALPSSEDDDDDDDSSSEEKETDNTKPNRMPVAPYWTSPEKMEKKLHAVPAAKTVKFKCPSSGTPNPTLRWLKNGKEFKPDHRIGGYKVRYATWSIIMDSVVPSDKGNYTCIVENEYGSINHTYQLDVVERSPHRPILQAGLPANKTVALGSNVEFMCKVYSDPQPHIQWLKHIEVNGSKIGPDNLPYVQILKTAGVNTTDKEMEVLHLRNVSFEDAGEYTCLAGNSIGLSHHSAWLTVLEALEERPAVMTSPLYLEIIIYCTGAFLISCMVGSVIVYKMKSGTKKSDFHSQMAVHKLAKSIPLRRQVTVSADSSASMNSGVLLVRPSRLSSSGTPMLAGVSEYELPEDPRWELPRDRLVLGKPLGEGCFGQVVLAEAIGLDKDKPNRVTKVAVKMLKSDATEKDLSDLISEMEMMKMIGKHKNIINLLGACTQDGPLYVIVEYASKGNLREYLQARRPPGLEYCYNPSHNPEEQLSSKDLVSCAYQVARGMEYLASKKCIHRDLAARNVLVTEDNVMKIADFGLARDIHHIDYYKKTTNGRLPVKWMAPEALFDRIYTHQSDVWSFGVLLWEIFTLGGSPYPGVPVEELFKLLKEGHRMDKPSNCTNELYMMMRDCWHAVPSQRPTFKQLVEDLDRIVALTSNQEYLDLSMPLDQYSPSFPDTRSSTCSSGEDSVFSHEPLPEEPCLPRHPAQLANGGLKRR
Sequence of UniProt O94804 (whole entry, looked up): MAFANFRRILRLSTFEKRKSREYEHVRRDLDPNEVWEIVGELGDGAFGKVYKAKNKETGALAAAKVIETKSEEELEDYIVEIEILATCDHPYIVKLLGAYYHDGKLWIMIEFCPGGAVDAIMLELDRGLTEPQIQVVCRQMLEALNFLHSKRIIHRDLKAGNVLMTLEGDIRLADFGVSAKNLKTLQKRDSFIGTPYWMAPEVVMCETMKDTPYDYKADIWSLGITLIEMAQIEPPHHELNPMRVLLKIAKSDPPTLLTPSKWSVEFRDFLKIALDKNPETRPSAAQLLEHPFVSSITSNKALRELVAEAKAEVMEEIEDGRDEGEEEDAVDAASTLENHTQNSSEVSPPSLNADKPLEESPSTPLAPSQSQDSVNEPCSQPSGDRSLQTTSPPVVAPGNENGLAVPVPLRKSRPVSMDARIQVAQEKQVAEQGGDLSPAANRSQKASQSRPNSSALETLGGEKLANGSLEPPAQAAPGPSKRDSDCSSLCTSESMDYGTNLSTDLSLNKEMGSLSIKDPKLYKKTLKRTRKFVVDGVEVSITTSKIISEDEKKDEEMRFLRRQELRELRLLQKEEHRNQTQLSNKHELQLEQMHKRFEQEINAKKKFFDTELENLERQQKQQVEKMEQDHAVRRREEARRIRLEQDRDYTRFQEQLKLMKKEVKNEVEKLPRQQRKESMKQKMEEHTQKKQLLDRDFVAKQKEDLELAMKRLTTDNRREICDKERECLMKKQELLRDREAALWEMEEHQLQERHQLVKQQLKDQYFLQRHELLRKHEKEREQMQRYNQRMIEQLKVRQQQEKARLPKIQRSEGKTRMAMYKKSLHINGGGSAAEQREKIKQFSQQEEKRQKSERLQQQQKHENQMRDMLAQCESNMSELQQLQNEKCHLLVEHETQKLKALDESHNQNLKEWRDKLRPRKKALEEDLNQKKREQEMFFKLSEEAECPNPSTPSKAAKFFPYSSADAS

Block 1 — organism: Sarcocystis neurona; observed: parasite activity; tested at: 10 µM; time: 96 h
For `CCC1(c2ccccc2)C(=O)NCNC1=O`, activity class read “inactive”.
`COc1cc(C)c(Cc2cnc(N)nc2N)cc1OC` — result for activity class: “inactive”.
`Oc1ccc(/C=C/c2cc(O)cc(O)c2)cc1`: activity class “inactive”.
`C[C@]12CCC(=O)C=C1CC[C@@H]1[C@@H]2[C@@H](O)C[C@@]2(C)[C@H]1CC[C@]2(O)C(=O)CO`: activity class “inactive”.
`NC1CCN(c2nc3c(cc2F)c(=O)c(C(=O)O)cn3-c2ccc(F)cc2F)C1` (centres unmarked): activity class “inactive”.
`Cc1[nH]c(=O)c(C#N)cc1-c1ccncc1` — result for activity class: “inactive”.
`O=C(c1ccc(F)cc1)C1CCN(CCn2c(=S)[nH]c3ccccc3c2=O)CC1`: activity class “active”.
For `C[C@](N)(Cc1ccc(O)c(O)c1)C(=O)O`, activity class read “inactive”.
`CO[C@H]1/C=C/O[C@@]2(C)Oc3c(C)c(O)c4c(c3C2=O)C2=NC3(CCN(CC(C)C)CC3)NC2=C(NC(=O)/C(C)=C\C=C\[C@H](C)[C@H](O)[C@@H](C)[C@@H](O)[C@@H](C)[C@H](OC(C)=O)[C@@H]1C)C4=O` — result for activity class: “inactive”.
`CC(C(=O)O)c1ccc(CC2CCCC2=O)cc1` (centres unmarked): activity class “inactive”.
`CC(C)NCC(O)COc1ccc(COCCOC(C)C)cc1` (centres unmarked) — result for activity class: “inactive”.
Under activity class, `CC(=O)CC(c1ccccc1)c1c(O)c2ccccc2oc1=O` (centres unmarked) is recorded as “inactive”.
For `NS(=O)(=O)c1cc(C2(O)NC(=O)c3ccccc32)ccc1Cl` (centres unmarked), activity class read “inactive”.
`NS(=O)(=O)c1cc2c(cc1Cl)NCNS2(=O)=O`: activity class “inactive”.
`Clc1ccc2c(c1)C(N1CCNCC1)=Nc1ccccc1O2` — result for activity class: “inactive”.
`COCc1c(C(C)C)nc(C(C)C)c(/C=C/[C@@H](O)C[C@@H](O)CC(=O)O)c1-c1ccc(F)cc1`: activity class “inactive”.

Block 2 — observed: enzyme activity; mode: inhibitor; tested at: 10 µM
Target: Calcium/calmodulin-dependent protein kinase type II subunit alpha (CAMK2A, Homo sapiens, UniProt Q9UQM7)
Sequence of UniProt Q9UQM7 (whole entry, looked up): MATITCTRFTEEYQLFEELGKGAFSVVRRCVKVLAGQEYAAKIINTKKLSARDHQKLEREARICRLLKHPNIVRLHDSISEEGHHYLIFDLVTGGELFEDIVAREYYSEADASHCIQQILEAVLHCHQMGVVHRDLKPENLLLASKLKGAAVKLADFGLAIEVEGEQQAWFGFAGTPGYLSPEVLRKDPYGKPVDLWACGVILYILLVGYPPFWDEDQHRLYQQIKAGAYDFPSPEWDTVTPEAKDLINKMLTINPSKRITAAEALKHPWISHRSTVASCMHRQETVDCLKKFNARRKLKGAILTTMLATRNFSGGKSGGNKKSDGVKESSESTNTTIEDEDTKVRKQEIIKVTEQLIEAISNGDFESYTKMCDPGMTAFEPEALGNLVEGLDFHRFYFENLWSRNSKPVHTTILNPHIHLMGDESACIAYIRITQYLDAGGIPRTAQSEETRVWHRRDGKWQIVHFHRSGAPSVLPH
With `NCCCN(CCCCNCCCNC(=O)CCc1ccc(O)c(O)c1)C(=O)CCc1ccc(O)c(O)c1` the inhibition was 1%.
For `CCN(CC)C(=O)c1cccc(C)c1`, the inhibition was 2%.
With `Cc1cc(NC(=O)C2=C(O)c3ccccc3S(=O)(=O)N2C)no1` the inhibition was -7%.
The inhibition of `C=C1C(=O)[C@@]23[C@H](O)C[C@@H]4C(C)(C)C(=O)CC[C@@]4(C)[C@@H]2CC[C@@H]1[C@H]3O` is reported as 1%.
For `Cc1ncc([N+](=O)[O-])n1CC(O)CN1CCOCC1` (centres unmarked), the inhibition was -11%.
The inhibition of `CCCCCCO` is reported as -5%.
`CCCCCCCCCCCCCCC(=O)OC` gave an inhibition of 13%.
`C/C=C(\C)C(=O)O[C@H]1[C@H](OC(C)=O)[C@@]2(CO)C(CC1(C)C)C1=CCC3[C@@]4(C)CCC(O[C@@H]5O[C@H](C(=O)O)[C@@H](O[C@@H]6O[C@H](CO)[C@@H](O)[C@H](O)[C@H]6O)[C@H](O)[C@H]5O[C@@H]5O[C@H](CO)[C@@H](O)[C@H](O)[C@H]5O)[C@](C)(CO)C4CC[C@@]3(C)[C@]1(C)C[C@H]2O` (some centres unmarked) has an inhibition of -6%.

Block 3 — observed: cell-free assay; technique: competition with immobilised ligand; tested at: 1 µM
SMILES: O=C(NS(=O)(=O)c1ccc(NCC2CCOCC2)c([N+](=O)[O-])c1)c1ccc(N2CCN(Cc3ccc(C(F)(F)F)cc3-c3ccc(Cl)cc3)CC2)cc1Oc1cnc2[nH]ccc2c1
It gave 55% for remaining binding (Serine/threonine-protein kinase 32C (STK32C, Homo sapiens, UniProt Q86UX6)).
The remaining binding was 100% (Glycogen synthase kinase-3 beta (GSK3B, Homo sapiens, UniProt P49841)).
For Fibroblast growth factor receptor 1 (FGFR1, Homo sapiens, UniProt P11362): remaining binding read 91%.
It gave 100% for remaining binding (Mitogen-activated protein kinase kinase kinase 1 (MAP3K1, Homo sapiens, UniProt Q13233)).
Maternal embryonic leucine zipper kinase (MELK, Homo sapiens, UniProt Q14680) — remaining binding: 73%.
For Serine/threonine-protein kinase/endoribonuclease IRE1 (ERN1, Homo sapiens, UniProt O75460): remaining binding read 90%.
The remaining binding was 100% (Serine/threonine-protein kinase 10 (STK10, Homo sapiens, UniProt O94804)).
Dual specificity mitogen-activated protein kinase kinase 4 (MAP2K4, Homo sapiens, UniProt P45985) — remaining binding: 100%.
It gave 84% for remaining binding (Non-receptor tyrosine-protein kinase TYK2, JH1 (TYK2, Homo sapiens, UniProt P29597)).
It gave 99% for remaining binding (Tyrosine-protein kinase HCK (HCK, Homo sapiens, UniProt P08631)).
Cyclin-dependent kinase 11A (CDK11A, Homo sapiens, UniProt Q9UQ88) — remaining binding: 100%.
Casein kinase I isoform delta (CSNK1D, Homo sapiens, UniProt P48730) — remaining binding: 80%.
Serine/threonine-protein kinase haspin (HASPIN, Homo sapiens, UniProt Q8TF76) — remaining binding: 85%.

Block 4 — observed: enzyme activity; mode: inhibitor; tested at: 0.5 µM; baseline: control
Target: Receptor-interacting serine/threonine-protein kinase 2 (RIPK2, Homo sapiens, UniProt O43353)
Sequence of UniProt O43353 (whole entry, looked up): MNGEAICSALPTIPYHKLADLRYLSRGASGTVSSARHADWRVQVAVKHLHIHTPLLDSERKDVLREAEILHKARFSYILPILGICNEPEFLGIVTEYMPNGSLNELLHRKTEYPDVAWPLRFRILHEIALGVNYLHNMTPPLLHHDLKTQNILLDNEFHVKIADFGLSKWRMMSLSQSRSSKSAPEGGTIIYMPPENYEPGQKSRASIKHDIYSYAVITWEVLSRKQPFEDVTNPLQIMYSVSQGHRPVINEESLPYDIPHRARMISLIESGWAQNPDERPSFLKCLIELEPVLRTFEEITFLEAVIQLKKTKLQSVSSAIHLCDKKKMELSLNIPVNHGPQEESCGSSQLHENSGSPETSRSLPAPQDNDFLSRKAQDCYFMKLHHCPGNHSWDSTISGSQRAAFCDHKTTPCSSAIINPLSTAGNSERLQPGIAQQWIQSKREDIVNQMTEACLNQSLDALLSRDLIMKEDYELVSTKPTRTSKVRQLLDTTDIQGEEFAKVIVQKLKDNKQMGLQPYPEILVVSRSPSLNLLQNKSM
For `COc1ccc(S(=O)(=O)N(CCO)c2ccccc2CN(C)CC=Cc2ccc(Cl)cc2)cc1`, the remaining activity was 87%.
For `CC#CC(=O)Nc1cc2c(Nc3ccc(F)c(Cl)c3)ncnc2cn1`, the remaining activity was 38.7%.
For `Cc1cc(Nc2nc(-c3ccccc3)nc3ccccc23)n[nH]1`, the remaining activity was 70.4%.
The remaining activity of `CCc1[nH]c(-c2ccc(OC)cc2)nc1-c1ccncc1` is reported as 95%.
`Oc1ccc(Nc2nc(-c3ccc(Cl)cc3)cs2)cc1` has a remaining activity of 96.4%.
For `CCCC(=O)Oc1ccc2[nH]c(C(=O)c3cc4ccccc4[nH]3)cc2c1`, the remaining activity was 90%.
For `Nc1ncnc2c1cnn2-c1ccccc1`, the remaining activity was 93.1%.
`NC(=O)c1ccc(N(C(N)=O)c2c(F)cccc2F)nc1-c1ccc(F)cc1F` gave a remaining activity of 101%.
For `CSc1nc(-c2ccnc(N[C@@H](C)c3ccccc3)c2)c(-c2ccc(F)cc2)[nH]1` (racemic), the remaining activity was 85.1%.
`Nc1nc(Nc2ccc(S(N)(=O)=O)cc2)nn1C(=O)c1c(F)cccc1F` has a remaining activity of 77.8%.
`Fc1ccc(-c2nc3n(c2-c2ccncc2)CCS3)cc1` has a remaining activity of 84.7%.
For `COc1cc(Nc2c(C#N)cnc3cc(OCCCN4CCN(C)CC4)c(OC)cc23)c(Cl)cc1Cl`, the remaining activity was 111%.
For `Cc1ccc(NC2=CC(=O)c3sc(C)nc3C2=O)cc1`, the remaining activity was 95.2%.
With `O=S(=O)(NCCNC/C=C/c1ccc(Br)cc1)c1cccc2cnccc12` the remaining activity was 77.8%.
With `CC(=O)c1ccc(N2CCOCC2)cc1O` the remaining activity was 103%.
`CC(C)(C)n1nc(Cc2cccc3ccccc23)c2c(N)ncnc21` gave a remaining activity of 62.6%.
`O=C1NC(=O)C(c2c[nH]c3ccccc23)=C1c1c[nH]c2ccccc12` has a remaining activity of 97%.
With `N#CC(=C(N)Sc1ccc(N)cc1)c1ccccc1C(F)(F)F` the remaining activity was 91%.
`Cc1cncc2cccc(S(=O)(=O)N3CCCN(C(=O)CN)C[C@@H]3C)c12` gave a remaining activity of 94.4%.
With `Nc1nccc(-c2c(-c3ccc(F)cc3)ncn2C2CCNCC2)n1` the remaining activity was 77.2%.
For `O=C1Cc2c([nH]c3ccc([N+](=O)[O-])cc23)-c2ccccc2N1`, the remaining activity was 43.4%.
With `CC[n+]1c(/C=C/N(C)c2ccccc2)n(-c2ccccc2)c2ccc(-c3nc4ccccc4s3)cc21` the remaining activity was 88.6%.

Repeated from above (block 4):
With `O=S(=O)(NCCNC/C=C/c1ccc(Br)cc1)c1cccc2cnccc12` the remaining activity was 77.8%.
For `CC#CC(=O)Nc1cc2c(Nc3ccc(F)c(Cl)c3)ncnc2cn1`, the remaining activity was 38.7%.
`O=C1NC(=O)C(c2c[nH]c3ccccc23)=C1c1c[nH]c2ccccc12` has a remaining activity of 97%.
For `Nc1ncnc2c1cnn2-c1ccccc1`, the remaining activity was 93.1%.
`CC(C)(C)n1nc(Cc2cccc3ccccc23)c2c(N)ncnc21` gave a remaining activity of 62.6%.
For `CCCC(=O)Oc1ccc2[nH]c(C(=O)c3cc4ccccc4[nH]3)cc2c1`, the remaining activity was 90%.
For `Cc1cc(Nc2nc(-c3ccccc3)nc3ccccc23)n[nH]1`, the remaining activity was 70.4%.
`Fc1ccc(-c2nc3n(c2-c2ccncc2)CCS3)cc1` has a remaining activity of 84.7%.
For `COc1cc(Nc2c(C#N)cnc3cc(OCCCN4CCN(C)CC4)c(OC)cc23)c(Cl)cc1Cl`, the remaining activity was 111%.
With `CC[n+]1c(/C=C/N(C)c2ccccc2)n(-c2ccccc2)c2ccc(-c3nc4ccccc4s3)cc21` the remaining activity was 88.6%.
